Experimental data of several laboratories.
Parts stem from different laboratories: compare values within a part only.

Study 1
Target: Histone acetyltransferase KAT6A, both winged helices, GST fusion (KAT6A, Homo sapiens, UniProt Q92794, residues 1-181)
Method: protein binding microarray
Molecule type: double-stranded DNA, one strand shown
Matrix: in vitro
Concentration: not given
Notes: 8-mer, flanks averaged, mean of 2 arrays, mostly near background
Relative to: not given
Reading: higher = stronger binding
Construct (chain): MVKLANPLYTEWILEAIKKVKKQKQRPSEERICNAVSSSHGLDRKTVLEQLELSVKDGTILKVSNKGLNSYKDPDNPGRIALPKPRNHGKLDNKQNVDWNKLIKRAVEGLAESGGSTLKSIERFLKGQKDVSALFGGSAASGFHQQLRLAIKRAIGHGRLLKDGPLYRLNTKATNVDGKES
Oligonucleotide | E-score
CTAACCGA | 0.0717
ACTGATCA | -0.0247
ATACCACA | -0.108
AGAAGCAC | -0.186
ATCCGATG | 0.0544
CACTGAAC | 0.00143

Study 2
Target: Interferon regulatory factor 3, full length, phosphomimetic (IRF3, Homo sapiens, UniProt Q14653, residues 1-427, S386D/S396D/S398D/S402D/T404D/S405D)
Chain of UniProt Q14653 (whole entry, unmodified, looked up): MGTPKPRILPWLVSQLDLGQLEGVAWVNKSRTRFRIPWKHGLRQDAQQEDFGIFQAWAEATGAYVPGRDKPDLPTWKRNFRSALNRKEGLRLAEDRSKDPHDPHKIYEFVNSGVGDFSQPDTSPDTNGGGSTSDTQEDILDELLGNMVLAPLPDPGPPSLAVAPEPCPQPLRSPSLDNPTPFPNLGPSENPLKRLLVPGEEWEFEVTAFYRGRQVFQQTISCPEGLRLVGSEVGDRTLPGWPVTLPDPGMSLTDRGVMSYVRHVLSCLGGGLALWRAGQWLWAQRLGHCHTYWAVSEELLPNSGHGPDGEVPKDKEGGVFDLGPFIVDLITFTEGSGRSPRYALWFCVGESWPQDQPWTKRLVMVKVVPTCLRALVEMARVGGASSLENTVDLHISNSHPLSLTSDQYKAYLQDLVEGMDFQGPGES
Method: protein-binding microarray
Molecule type: double-stranded DNA, one strand shown
Matrix: in vitro
Concentration: 2540 nM top
Notes: 60-bp whole probe
With: salmon DNA 0.4 mg/ml
Relative to: random background probes
Reading: higher = stronger binding
Oligonucleotide | fitted relative affinity [z-score]
GCCTAGCACGACGGACTGGGTTTCGCGACGTGCTAGGTCTTGATTCGCTTGACGCTGCTG | -0.124
GCCTAGCACTCATAAACCATTTTGGTACTGTGCTAGGTCTTGATTCGCTTGACGCTGCTG | 0.828
GCCTAGCACCACGGACTGGGTCTCGGGACGTGCTAGGTCTTGATTCGCTTGACGCTGCTG | -0.668
GCCTAGCACTTAGAACTGAGTTTTGATTAGTGCTAGGTCTTGATTCGCTTGACGCTGCTG | 0.0658

Study 3
Target: Sal-like protein 4, full length isoform B (SALL4, Homo sapiens, UniProt Q9UJQ4-2, residues 1-616)
Method: universal PBM
Molecule type: double-stranded DNA, one strand shown
Matrix: in vitro
Concentration: not given
Notes: 8-mer, flanks averaged, mean of replicates
Reading: higher = stronger binding
Construct (chain): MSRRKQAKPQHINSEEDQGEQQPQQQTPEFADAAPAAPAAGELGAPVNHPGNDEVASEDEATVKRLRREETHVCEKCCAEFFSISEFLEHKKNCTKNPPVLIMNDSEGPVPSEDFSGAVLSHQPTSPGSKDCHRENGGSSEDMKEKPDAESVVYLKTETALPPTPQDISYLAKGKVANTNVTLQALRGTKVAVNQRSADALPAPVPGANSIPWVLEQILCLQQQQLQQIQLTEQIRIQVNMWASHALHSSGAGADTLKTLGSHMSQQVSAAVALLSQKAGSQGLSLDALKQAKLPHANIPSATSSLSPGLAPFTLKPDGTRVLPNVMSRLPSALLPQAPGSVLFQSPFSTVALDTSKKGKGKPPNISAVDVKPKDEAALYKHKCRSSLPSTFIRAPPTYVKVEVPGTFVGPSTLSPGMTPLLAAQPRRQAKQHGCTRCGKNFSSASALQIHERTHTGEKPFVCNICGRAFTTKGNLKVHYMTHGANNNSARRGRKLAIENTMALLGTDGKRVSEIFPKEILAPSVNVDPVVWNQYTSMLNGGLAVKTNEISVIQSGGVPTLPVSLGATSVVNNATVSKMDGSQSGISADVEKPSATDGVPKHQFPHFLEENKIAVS
Oligonucleotide | E-score
AATGGCTG | -0.0408
CGTTTAAG | 0.0297
AACTTGAT | 0.322
AGATAGCC | -0.142

Single results of other studies
Molecule | target | assay | test system | setting | how to read | endpoint | value
PhoQ, residues 284 288 289 292 302 303 SLANIV | PhoP, residues 12 14 15 18 19 VHSCL (Escherichia coli, UniProt P23836) | Sort-seq, item: YFP reporter | E. coli | PhoQ-PhoP variant library, with: 10 µM Mg2+ | relative to: high Mg2+ state, higher = stronger signaling | fold induction | 14.7

Repeated from above (study 3):
Oligonucleotide | E-score
AATGGCTG | -0.0408
